Results from different studies.
Every numbered part comes from another study and shows a few of its results, in no order. Positions count from the first letter of the parent shown.

Series 1 — method: RNA Bind-n-Seq; molecule type: RNA; matrix: in vitro; concentration: 365 nM; baseline: no-protein control; direction: higher = stronger binding
Target: RNA binding protein fox-1 homolog 2, RRM domain, GST-SBP tag (RBFOX2, Homo sapiens, UniProt O43251-10, residues 100-194)
Setting: natural RNA segment, single round, ends assumed
All sequences stand within: GGGAGUUCUACAGUCCGACGAUC … UGGAAUUCUCGGGUGCCAA
Residues (chain): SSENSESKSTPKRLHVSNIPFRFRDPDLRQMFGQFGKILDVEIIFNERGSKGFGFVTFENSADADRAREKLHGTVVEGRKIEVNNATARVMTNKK
Sequence | RBNS enrichment (R)
UUGAAAAAAUACACUGGUGCUCUUUGAAGUGAUAAAAUGAGUGUUUAUGAAUGGGUGUAAUUAGGAAAUACUUCUCAUCUGACAGCUACAAAUAACUAAGUUUGGAGGUA | 0.738
UGGAGAGAACCUCACCAAACAGCUGGUGUGGCCUGAGGGUGGCCAUGGUGGGAAAUGGGCAUGAGAAUAAAUACCUCCCCAAAUUCAAUCUGAGCCCAGCAGGAGAGGAU | 0.647
GAGAACUUGGAAUGUUUGAACCACAGCCCUCAGAACUUUAGUAACAGCACAACAAAUUAAAACAACUCAUGCCACAGUAUGUUGUCUUCAUGUGUCUUGCAAUGAACUGU | 0.692
UGCUUCAUCGUCUUGGCUGAGAAAGGGAAAAGACACACAAGUCGCGUGGGUUGGAGAAGCCAGAGCCAUUCCACCUCCCCUCCCCCAGCAUCUCUCAGAGAUGUGAAGCC | 0.297
GCAAGCCGAUCCACACGACCAUCCUGAACCCACACGUGCACGUCAUUGGAGAGGAUGCCGCCUGCAUCGCUUACAUCCGGCUCACGCAGUACAUUGACGGGCAGGGCCGG | 0.603
GUAGUUCACUCAGCCUUGAUUGUACUGCAAGGGCGAGACAAAAAUAAACGGGAAACGUGCUGUUCAACAUGUGACUUAUUUUUAAACUUCUAAACCCCAAACCUAGAGCU | 0.378
GAUGUAAUGUAGUUCUUUGUUCCUGCUUUCUCUUUCAGUAUUAAACUCUCCUUUGAUAUUAUGUGGCUUUUAUUUCAGUGCCAUACAUGUUAUUGUUUUCAACCUAGAAA | 0.847
CUAAAGAGCUGUGUUUUCAUAGCAGGGGCUAUUGUACAGACAGUGAUAACCAAAUAGUAAUAUGCCAGUUCUUUCUUCUUUUUUUAGCUUCAGUAGUAGCUAAGCCAUUA | 0.514
AGGAGGCAGCUCUCCCCACACAGCAGCACAGCCAUCACAGGAUUCCUUGUGUAGAAAUGAUUCCCAGUCUAGUUACCAACAGCUAGUCUAGGAGUAAUUGAAUGGCCCUA | 0.297
AACUAAAUAGAAAGCUAGUUGUUCCGCAGAUAGGAGUAGUCUUUAUUGUCCUGUACGGUCGGUGGCAGUGCUAUUCUGAGAUCUGUAGAUGCUUAGAAUAUCAGUAUUUU | 0.526
UAAUUGCCUACAGAGGGAUUUAUUUUUAUGAUGCUGGAAAUAUGAAAUGUAUUUUAAAAUUUCACUCUGGCAUAUGAUUUAUCUAUCACCAUUACUUUUUUUUAAGUCAC | 0.52
AUUAAGAAAUUGGUUAUUAUGCUUACUGUUCUAAUCUGGUGGUAAAGGUAUUCUUAAGAAUUUGCAGGUACUACAGAUUUUCAAAACUGAAUGAGAGAAAAUUGUAUAAC | 1.16

Series 2 — method: RNA Bind-n-Seq; molecule type: RNA; matrix: in vitro; concentration: 200 nM; setting: whole 134-nt RNA, ends assumed; together with: 150 mM LiCl; baseline: input library; direction: higher = stronger binding; library: 7-deaza-guanosine replaces G
Target: Ras GTPase-activating protein-binding protein 1, full length (G3BP1, Homo sapiens, UniProt Q13283)
Sequence of UniProt Q13283 (whole entry, looked up): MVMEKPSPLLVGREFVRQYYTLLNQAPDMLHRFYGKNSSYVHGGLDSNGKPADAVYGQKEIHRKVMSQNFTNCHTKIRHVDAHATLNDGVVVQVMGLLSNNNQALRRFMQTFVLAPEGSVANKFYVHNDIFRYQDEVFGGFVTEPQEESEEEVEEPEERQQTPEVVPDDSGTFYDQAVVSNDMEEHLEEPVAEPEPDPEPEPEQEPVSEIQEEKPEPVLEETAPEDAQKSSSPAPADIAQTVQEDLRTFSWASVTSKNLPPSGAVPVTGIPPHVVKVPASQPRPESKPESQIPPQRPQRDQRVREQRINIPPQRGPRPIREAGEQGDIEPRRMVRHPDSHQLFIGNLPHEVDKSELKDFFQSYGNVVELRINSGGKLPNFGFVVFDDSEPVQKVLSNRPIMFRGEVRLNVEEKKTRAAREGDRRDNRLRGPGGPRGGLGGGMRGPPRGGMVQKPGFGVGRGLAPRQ
All sequences stand within: GGGAGUUCUACAGUCCGACGAUC … UGGAAUUCUCGGGUGUCAAGG
Sequence | log2 enrichment
CAAGUCCUGUGCUACACAUCGUAUGUACCGAAUCGGGUUUGGGGUUUGGGUUUGGAAAGUAUUAUGUUACGCCGUUCGGAUCUGCACUUC | -0.605
AGUCCUGUGCUACACAUCGUAUGUACCGAAUCGGGGAAAGGGGUGGGGAAAAAGGGGAAAGUAUUAUGUUACGCCGUUCGGAUCUGCACU | 0.205
UGGCCCUGGUGGCAUGCGGGGAGGAAGAGGUGGCCUCAUGGAUCGUGGUGGUCCCGGUGGAAUGUCCAGAGGUGGCCGUGGUGGAGACAG | -0.0469
CAAGUCCUGUGCUACACAUCGUAUGUACCGAAUCGGGAAAGGGUUUGGGUUUGGGAAAGUAUUAUGUUACGCCGUUCGGAUCUGCACUUC | -0.624
UCAAGUCCUGUGCUACACAUCGUAUGUACCGAAUCGGGAGGGUGGGAAAAAGGGAAAGUAUUAUGUUACGCCGUUCGGAUCUGCACUUCC | -0.233
UCCUGUGCUACACAUCGUAUGUACCGAAUCGGGGUUUGGGGUUUGGGGAAAAAAAGGGGAAAGUAUUAUGUUACGCCGUUCGGAUCUGCA | -0.577
GCAGGAAGUAAAAACAAAUGGAAAAGCUUCGGAUAGUGGCAGGGGUGGGGGUUGCUAAGGAAAGGGUGGGAUGGGAGUGGGUAAAGAGUU | -0.112
CUGUGCUACACAUCGUAUGUACCGAAUCGGGGUUUUUGGGGUUUUUGGGGAAAAAAAGGGGAAAGUAUUAUGUUACGCCGUUCGGAUCUG | 0.673
AAGUCCUGUGCUACACAUCGUAUGUACCGAAUCGGGGAAAAGGGGAAAAGGAAAAGGAAAGUAUUAUGUUACGCCGUUCGGAUCUGCACU | 0.322
CCUGUGCUACACAUCGUAUGUACCGAAUCGGGGAAAAAGGGGUUUGGGGUUUUUUUGGGGAAAGUAUUAUGUUACGCCGUUCGGAUCUGC | 0.297

Series 3 — target: CCNE1, cyclin fold, Cln2 fusion (human); method: yeast growth competition, sequencing; matrix: yeast; setting: weak parent motif; baseline: not given; direction: higher = stronger binding
Parent: MASTL docking peptide (human); PMIAKNLMCELDE
Variant | normalised enrichment score
PMRAKNLMCELDE [I3R] | 0.00616
PMICKNLMCELDE [A4C] | 0.105
PMIAKNLMCTLDE [E10T] | -0.155
PMIAKNDMCELDE [L7D] | -0.319
PMIAKNEMCELDE [L7E] | 0.329
PMIAKPLMCELDE [N6P] | 0.0494
PMIAKNLMCELTE [D12T] | 0.145
PFIAKNLMCELDE [M2F] | 0.0898

Further values, each from its own experiment
Substance | target | assay | test system | conditions | scale | endpoint | value
PhoQ, residues 284 288 289 292 302 303 SNGLAW | PhoP, residues 12 14 15 18 19 IQFRS (Escherichia coli, UniProt P23836) | Sort-seq, measured: YFP reporter | E. coli | PhoQ-PhoP variant library, together with: 10 µM Mg2+ | baseline: high Mg2+ state, higher = stronger signaling | fold induction | 9.69
